Experimental data gathered from unrelated publications.
Each line is one published result; not all experiments were run side by side.

| Substance | tested on | assay | test system | setting | measurement | result |
| --- | --- | --- | --- | --- | --- | --- |
| QDALFAYTKRNVIPT | human CD4 T cells | AIM | peptide | – | responding donors | 6% |
| Cn1cnc(Cn2c(=O)[nH]/c(=N\c3cc4cn(C)nc4cc3Cl)n(Cc3cc(F)c(F)cc3F)c2=O)n1 | – | – | human, normal renal function | oral, 375 mg | any TEAE, Mild severity | 0% |
| CC[C@H](C)[C@H](NC(=O)[C@H](CC(C)C)NC(=O)[C@H](Cc1c[nH]c2ccccc12)NC(=O)[C@H](CCC(N)=O)NC(=O)[C@@H](NC(=O)[C@H](Cc1ccccc1)NC(=O)[C@H](C)NC(=O)[C@H](CCCCNC(=O)COCCOCCNC(=O)COCCOCCNC(=O)CC[C@H](NC(=O)CCCCCCCCCCCCCCCCCCC(=O)O)C(=O)O)NC(=O)[C@H](CCC(N)=O)NC(=O)[C@H](C)NC(=O)[C@@H](NC(=O)[C@H](CCCCN)NC(=O)[C@H](CC(=O)O)NC(=O)[C@H](CC(C)C)NC(=O)C(C)(C)NC(=O)[C@@H](NC(=O)[C@H](CO)NC(=O)[C@H](Cc1ccc(O)cc1)NC(=O)[C@H](CC(=O)O)NC(=O)[C@H](CO)NC(=O)[C@@H](NC(=O)[C@H](Cc1ccccc1)NC(=O)[C@@H](NC(=O)CNC(=O)[C@H](CCC(=O)O)NC(=O)C(C)(C)NC(=O)[C@@H](N)Cc1ccc(O)cc1)[C@@H](C)O)[C@@H](C)O)[C@@H](C)CC)[C@@H](C)CC)C(C)C)C(=O)N[C@@H](C)C(=O)NCC(=O)NCC(=O)N1CCC[C@H]1C(=O)N[C@@H](CO)C(=O)N[C@@H](CO)C(=O)NCC(=O)N[C@@H](C)C(=O)N1CCC[C@H]1C(=O)N1CCC[C@H]1C(=O)N1CCC[C@H]1C(=O)N[C@@H](CO)C(N)=O | – | item: anti-drug antibodies | healthy subjects | 0.5 mg, baseline, multiple ascending dose | ADA-positive subjects at baseline | 0% |
| COC(=O)N[C@H](C(=O)N[C@@H](Cc1ccccc1)[C@@H](O)CN(Cc1ccc(-c2ccccn2)cc1)NC(=O)[C@@H](NC(=O)OC)C(C)(C)C)C(C)(C)C.O=S(=O)(O)O | Replicase polyprotein 1ab, main protease (rep, Severe acute respiratory syndrome coronavirus 2, UniProt P0DTD1) | reporter gene (mKate2), inhibitor | – | 20 µM | inhibition | 0.17% |
| IQYIDIGNYTVSCLP | human CD4 T cells | AIM | peptide | – | responding donors | 9% |
| Nc1ncnc2c([C@@H]3N[C@H](CO)[C@@H](O)[C@H]3O)c[nH]c12 | Zaire ebolavirus | antibody staining | human macrophages | 12.5 µM | antigen-positive cells | 65.2% |
